{"data": "Measurements gathered from unrelated publications", "note": "Protocols differ between the studies behind these lines."}
{"SMILES": "O=[N+]([O-])c1ccc(C2=[N+]([O-])c3ccccc3N3CCCN=C23)cc1", "organism": "Eggerthella lenta", "test": "microbial growth", "system": "ATCC43055", "MIC": "≤ 0.06 µg/mL"}
{"SMILES": "COc1ccc2ccc3c(c2c1)C=[N+]1C2CCCCC2[N+]2=Cc4cc(C(C)(C)C)cc(C(C)(C)C)c4[O][Au-]21[O]3.F[P-](F)(F)(F)(F)F (centres unmarked)", "organism": "Klebsiella pneumoniae", "test": "bacterial growth, broth microdilution", "system": "carbapenem-resistant clinical isolate", "conditions": "24 h", "MIC": "> 20 µM"}
{"SMILES": "CCCCc1ccc(-c2nc(C)c(C(C)=NNC(=N)N)s2)cc1", "organism": "Staphylococcus aureus", "system": "NRS194 MRSA", "MIC": "1.3 µg/mL"}
{"SMILES": "CC[C@H](C)[C@H](NC(=O)[C@H](C)NC(=O)[C@@H](NC(=O)[C@H](CC(=O)O)NC(=O)[C@H](CCCCN)NC(=O)[C@H](CO)NC(=O)[C@@H](NC(=O)[C@H](CC(N)=O)NC(=O)[C@H](C)NC(=O)[C@@H](NC(=O)[C@H](CCC(=O)O)NC(=O)[C@H](CCCCN)NC(=O)[C@@H](NC(=O)[C@@H](NC(=O)[C@H](Cc1c[nH]cn1)NC(=O)[C@H](CCCCN)NC(=O)[C@@H](NC(=O)[C@H](CCCCN)NC(=O)[C@H](CCCCN)NC(=O)[C@@H](NC(=O)[C@H](CC(C)C)NC(=O)[C@H](CCCCN)NC(=O)[C@H](CC(N)=O)NC(=O)[C@H](Cc1ccccc1)NC(=O)[C@H](CCCNC(=N)N)NC(=O)[C@H](CCCCN)NC(=O)[C@H](CCCNC(=N)N)NC(=O)[C@H](Cc1ccccc1)NC(=O)CN)C(C)C)C(C)C)[C@@H](C)O)[C@@H](C)CC)[C@@H](C)O)C(C)C)C(C)C)C(=O)N[C@H](C(=O)N[C@@H](C)C(=O)NCC(=O)N[C@@H](CO)C(=O)NCC(=O)N[C@H](C(=O)N[C@@H](C)C(=O)N[C@H](C(=O)NCC(=O)N[C@@H](C)C(=O)N[C@@H](C)C(=O)N[C@@H](CCSC)C(N)=O)C(C)C)C(C)C)C(C)C", "organism": "E. coli, K. pneumoniae, A. baumannii", "system": "CAMHB with 10% human serum", "MIC": "~0.063 µg/mL"}
{"SMILES": "c1ccc(CCNC2CCCc3c2[nH]c2ccc(C4CCCCC4)cc32)cc1 (centres unmarked)", "organism": "Staphylococcus aureus", "test": "broth microdilution", "system": "ATCC 25923, THY medium", "MIC": "5 µg/mL"}
{"SMILES": "CN[C@@H]1[C@H](O)[C@H](NC)[C@H]2O[C@]3(O)[C@H](O[C@@H]2[C@H]1O)O[C@H](C)C[C@@]3(O)CNCc1ccc(Cl)cc1", "organism": "Listeria monocytogenes", "MIC": "6.3 µg/mL"}
{"SMILES": "CC[C@H](C)[C@H](NC(=O)[C@H](CC(C)C)NC(=O)CCNC(=O)[C@H](CO)NC(=O)[C@H](CCCNC(=N)N)NC(=O)[C@@H](N)CO)C(=O)N[C@H](C(=O)N[C@@H](Cc1c[nH]cn1)C(=O)N[C@@H](CCC(N)=O)C(=O)N[C@@H](CCCNC(=N)N)C(=O)N[C@@H](CC(C)C)C(=O)N[C@@H](Cc1ccccc1)C(N)=O)C(C)C", "organism": "Trichophyton rubrum", "test": "broth microdilution", "system": "ATCC 28189", "MIC": "> 400 µg/mL"}
{"SMILES": "C[N+]1=C2C(c3ccc(Cl)cc3)=[N+]([O-])c3ccccc3N2CCC1", "organism": "Peptostreptococcus anaerobius", "MIC": "16 µg/mL"}
{"SMILES": "CC(C)C[C@@H]1NC(=O)[C@H](C)NC(=O)[C@H](NC(=O)[C@H](CO)NC(=O)[C@@H](CCCCN)NC(=O)[C@@H](C)NC(=O)[C@@H](N)Cc2ccccc2)[C@H](C(N)=O)OC(=O)[C@H](CC(C)C)NC1=O", "organism": "Bacillus subtilis Bacillus subtilis", "system": "ATCC 6051", "conditions": "tested as TFA salt", "MIC": "4 to 8 µg/mL"}
{"SMILES": "C[N+]1=C2C(c3ccccc3)=[N+]([O-])c3ccccc3N2CCC1", "organism": "Fusobacterium nucleatum", "test": "microbial growth", "system": "ATCC25586", "MIC": "2 µg/mL"}
{"SMILES": "CC[C@H](C)[C@@H]1NC(=O)CNC(=O)[C@H](CCCCN)NC(=O)[C@H](C)NC(=O)[C@H](CCC(=O)O)NC(=O)[C@H](Cc2ccccc2)NC(=O)[C@H](CO)NC(=O)[C@H](CC(C)C)NC(=O)[C@H](C(C)C)NC(=O)[C@H](CC(=O)O)NC(=O)[C@@H](NC(=O)[C@@H](NC(=O)[C@@H](N)C(C)C)[C@@H](C)O)CSSC[C@@H]2NC(=O)[C@H](CO)NC(=O)CNC(=O)CNC(=O)[C@H](CCCCN)NC(=O)[C@H](CCCCN)NC(=O)[C@H](CCCNC(=N)N)NC(=O)[C@H](CC(C)C)NC(=O)[C@H](C)NC(=O)[C@H]([C@@H](C)CC)NC(=O)[C@@H]3CSSC[C@@H](C(=O)N[C@@H](CCCNC(=N)N)C(=O)N[C@@H](CC(N)=O)C(=O)O)NC(=O)[C@H](C(C)C)NC(=O)[C@H](CSSC[C@H](NC(=O)[C@H](C)NC(=O)[C@H](CO)NC(=O)[C@H](Cc4c[nH]cn4)NC(=O)[C@H](CC(N)=O)NC(=O)[C@H](C(C)C)NC(=O)[C@H](C)NC1=O)C(=O)N[C@@H](C)C(=O)N[C@@H](CC(C)C)C(=O)N[C@@H](Cc1c[nH]cn1)C(=O)N3)NC(=O)[C@H](C(C)C)NC(=O)CNC(=O)[C@H](CC(N)=O)NC(=O)[C@H](CCC(N)=O)NC2=O", "organism": "Malassezia furfur", "test": "broth microdilution", "system": "KCTC 7744", "conditions": "32 °C, YM broth with 1% olive oil", "MIC": "5 µM"}
{"note": "A few entries again:"}
{"SMILES": "CC[C@H](C)[C@H](NC(=O)[C@H](CC(C)C)NC(=O)CCNC(=O)[C@H](CO)NC(=O)[C@H](CCCNC(=N)N)NC(=O)[C@@H](N)CO)C(=O)N[C@H](C(=O)N[C@@H](Cc1c[nH]cn1)C(=O)N[C@@H](CCC(N)=O)C(=O)N[C@@H](CCCNC(=N)N)C(=O)N[C@@H](CC(C)C)C(=O)N[C@@H](Cc1ccccc1)C(N)=O)C(C)C", "organism": "Trichophyton rubrum", "test": "broth microdilution", "system": "ATCC 28189", "MIC": "> 400 µg/mL"}
{"SMILES": "C[N+]1=C2C(c3ccc(Cl)cc3)=[N+]([O-])c3ccccc3N2CCC1", "organism": "Peptostreptococcus anaerobius", "MIC": "16 µg/mL"}
